Results pooled from the literature.
Every numbered part comes from another study and shows a few of its results, in no order.

Sample 1
Target: Prothrombin, mature alpha-thrombin (F2, Homo sapiens, UniProt P00734)
Technique: aptamer microarray, sandwich
Molecule type: DNA with 2'F-ANA
Medium: in vitro
Concentration: 200 nM
Setting: whole 15-mer aptamer, many near background
Added: Cy3 exosite-II aptamer, 400 nM
Direction: higher = stronger binding
`GGTTGGTGTGGTTGG (2'F-ANA at 1 2 3 7 8 9 10 11 15)`: “mean fluorescence intensity” 71.1 a.u.
`GGTTGGTGTGGTTGG (2'F-ANA at 3 4 5 6 8 9 12 13 14 15)`: “mean fluorescence intensity” 49.6 a.u.
Under “mean fluorescence intensity”, `GGTTGGTGTGGTTGG (2'F-ANA at 4 7 10 11 13)` is recorded as 71.2 a.u.
For `GGTTGGTGTGGTTGG (2'F-ANA at 3 4 7 11 13 14 15)`, “mean fluorescence intensity” read 328 a.u.

Sample 2
Target: Interferon regulatory factor 5, full length, phosphomimetic (IRF5, Homo sapiens, UniProt Q13568-2, residues 1-514, S451D/S453D/S456D/S462D)
Technique: protein-binding microarray
Molecule type: double-stranded DNA, one strand shown
Medium: in vitro
Concentration: 940 nM top
Setting: 60-bp whole probe
Added: salmon DNA 0.4 mg/ml
Reference: random background probes
Direction: higher = stronger binding
`GCCTAGCACTCACTTTCCTTACTTCCCACTGTGCTAGTCTTGATTCGCTTGACGCTGCTG`: “fitted relative affinity” 2.47 z-score.
`GCCTAGCACTCAACTTTCTTAATGCTACTGTGCTAGGTCTTGATTCGCTTGACGCTGCTG` — result for “fitted relative affinity”: 1.16 z-score.
`GCCTAGCACGACGATTTCGGTATCGGGACGTGCTAGGTCTTGATTCGCTTGACGCTGCTG` — result for “fitted relative affinity”: 3.6 z-score.
`GCCTAGCACGATGATTTCGGGTATCGAGACGTGCTAGTCTTGATTCGCTTGACGCTGCTG` — result for “fitted relative affinity”: 1.48 z-score.

Single results of other studies
For `PhoQ, residues 284 288 289 292 302 303 SSTLSG`, the fold induction was 12.3 (PhoP, residues 12 14 15 18 19 IQSYL (Escherichia coli, UniProt P23836); Sort-seq, item: YFP reporter; E. coli; PhoQ-PhoP variant library, added: 10 µM Mg2+; reference: high Mg2+ state, higher = stronger signaling).
`H2BC21 (Homo sapiens, UniProt Q16778)`: interaction screen “cross-linked” (H2AC1 (Homo sapiens, UniProt Q96QV6); cross-linking MS; hits only).

A few entries again (sample 2):
`GCCTAGCACTCACTTTCCTTACTTCCCACTGTGCTAGTCTTGATTCGCTTGACGCTGCTG`: “fitted relative affinity” 2.47 z-score.
